Earlier results, collected from citations in different studies.
Lines come from different studies, so protocols differ. ± marks the error that the study gave. Values after ≈ are worked out from the molar mass of the structure shown.
Sequence of UniProt Q9HBH9 (whole entry, looked up): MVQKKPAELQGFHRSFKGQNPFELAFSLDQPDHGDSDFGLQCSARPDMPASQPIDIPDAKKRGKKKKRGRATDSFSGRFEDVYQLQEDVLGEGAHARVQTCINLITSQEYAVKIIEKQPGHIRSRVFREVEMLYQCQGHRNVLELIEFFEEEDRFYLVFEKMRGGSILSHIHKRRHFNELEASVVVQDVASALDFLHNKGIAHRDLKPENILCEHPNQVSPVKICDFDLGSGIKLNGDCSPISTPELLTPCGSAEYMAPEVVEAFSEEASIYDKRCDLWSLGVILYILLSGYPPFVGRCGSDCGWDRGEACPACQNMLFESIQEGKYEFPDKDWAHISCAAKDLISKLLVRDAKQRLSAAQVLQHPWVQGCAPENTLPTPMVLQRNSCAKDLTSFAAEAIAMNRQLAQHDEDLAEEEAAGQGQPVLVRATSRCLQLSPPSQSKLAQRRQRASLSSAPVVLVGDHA

| SMILES | target or system | assay | system | conditions | how to read | quantity | value |
| --- | --- | --- | --- | --- | --- | --- | --- |
| Nc1nc(=O)n(C2CSC(CO)O2)cc1F (stereo not shown) |  |  | monkey | 33.3 mg/kg |  | bioavailability | 73% |
| CN(C)C(=O)c1cc2cnc(Nc3ccc(N4CCNCC4)cn3)nc2n1C1CCCC1 |  | item: asthenia | advanced solid tumour or lymphoma patients | dose not given, continuous dosing | baseline: patients | adverse event incidence | 21.1% |
| N#CCNC(=O)c1ccc(-c2ccnc(Nc3ccc(N4CCOCC4)cc3)n2)cc1 |  |  | patients with myelofibrosis | dose not given, pooled three phase III trials |  | incidence of grade ≥3 anaemia adverse events | 14.8% |
| CC(C)(C)OC[C@@H]1C(=O)NCCN1C(=O)C[C@H](N)Cc1cc(F)c(F)cc1F |  |  | human |  |  | elimination half-life | 32.9 to 38.8 h |
| CN[C@@H](C)C(=O)N[C@H]1CN(S(=O)(=O)c2cccc(S(=O)(=O)N3CC[C@H]4CC[C@@H](C(=O)NC(c5ccccc5)c5ccccc5)N4C(=O)[C@@H](NC(=O)[C@H](C)NC)C3)c2)CC[C@H]2CC[C@@H](C(=O)NC(c3ccccc3)c3ccccc3)N2C1=O |  |  | rat |  | baseline: 7 consecutive doses over single dose | AUC(0-t) ratio | 1.6 |
| COc1ccc([C@@H](O)c2cc(-c3ncnc4cc(N5CCOCC5)ccc34)c(F)cc2Cl)nn1 |  |  | mouse | oral, 20 mg/kg |  | Tmax | 2 h |
| Nc1cc(C(F)(F)F)c(-c2nc(N3CCOCC3)nc(N3CCOCC3)n2)cn1 | MKNK2 (Homo sapiens, UniProt Q9HBH9) | enzyme activity |  | 10 µM | baseline: untreated | remaining activity | 91% |
| Cc1nc(NC(=O)N2CCC[C@H]2C(N)=O)sc1-c1ccnc(C(C)(C)C(F)(F)F)c1 |  |  | human | oral, 300 mg single dose, together with: meal, low fat, low calorie | baseline: fasted | increase in AUC | 77% |
| COc1cc(NC(=O)CCN2CCC(OC(=O)Nc3ccccc3-c3ccccc3)CC2)c(Cl)cc1CNC[C@H](O)c1ccc(O)c2[nH]c(=O)ccc12 |  |  | human, plasma | inhaled, dose not given |  | Clast | 0.0041 nM |
| CCN1CCN(Cc2ccc(Nc3ncc(F)c(-c4cc(F)c5nc(C)n(C(C)C)c5c4)n3)nc2)CC1 |  |  | human | 200 mg twice daily multiple dose, tablet |  | Cmin | 133 ng/mL |
| Cn1c(=O)c2c(ncn2C)n(C)c1=O |  |  | human | average of reported values |  | plasma clearance | 1.26 mL/min/kg |
| NC(=O)c1ncn([C@@H]2O[C@H](CO)[C@@H](O)[C@H]2O)n1 |  |  | human |  |  | oral bioavailability | 64% |
| CCOc1ccc(-c2nc3ccc(-c4nc5ccc(N6CCN(C)CC6)cc5[nH]4)cc3[nH]2)cc1 |  |  | PBS |  |  | fluorescence quantum yield | 0.026 ± 0.001 |
| O=c1c(-c2ccc(O)cc2)coc2cc(O)cc(O)c12 |  |  | plasma | concentration not given, total, steady state |  | Cmax | 810 nM |
| CC(C)(C)c1ccc(C(O)CCCN2CCC(C(O)(c3ccccc3)c3ccccc3)CC2)cc1 (stereo not shown) |  |  | human |  |  | free Cmax | 84.6 nM |
| N#C[C@@]1(c2ccc3c(N)ncnn23)O[C@H](CO)[C@@H](O)[C@H]1O |  |  | dog, plasma | intravenous, 2 mg/kg, 6 h, solution |  | plasma concentration | 346 ng/mL |
| CN(C)C(=N)N=C(N)N |  |  | human liver failure patients |  |  | CLint passive liver | 0.012 mL/min |
| Cc1c(OCC(F)(F)F)ccnc1C[S+]([O-])c1nc2ccccc2[nH]1 (stereo not shown) |  |  | supercritical CO2 |  |  | crossover pressure | 190 to 210 bar |
| C[C@@H](Oc1ccc(S(C)(=O)=O)cc1C(=O)N1C[C@@H]2C[C@]2(c2cc(C(F)(F)F)on2)C1)C(F)(F)F |  |  | human | oral, dose not given, tablet | baseline: fasted | Cmax increase with food | 42% |
| COC(=O)N[C@H](C(=O)N[C@@H](Cc1ccccc1)[C@@H](O)CN(Cc1ccc(-c2ccccn2)cc1)NC(=O)[C@@H](NC(=O)OC)C(C)(C)C)C(C)(C)C |  |  | plasma | concentration not given, total, steady state |  | Cmax | 7660 nM |
| CCOC(=O)C1=C(C)NC(C)=C(C(=O)OC)C1c1cccc(Cl)c1Cl (stereo not shown) |  |  | water |  |  | solubility | < 1000 µg/mL |
| CO/N=C(\C(=O)N[C@@H]1C(=O)N2C(C(=O)O)=C(CSc3nc(=O)c(=O)[nH]n3C)CS[C@H]12)c1csc(N)n1 |  |  | human |  |  | free Cmax | 23200 nM |
| Oc1ccc(/C=C/c2cc(O)cc(O)c2)cc1 |  |  | water |  |  | solubility | < 1000 µg/mL |
| CC[C@H](C)[C@H](NC(=O)[C@H](Cc1ccccc1)NC(=O)[C@H](CCC(=O)O)NC(=O)[C@H](CCCCNC(=O)COCCOCCNC(=O)COCCOCCNC(=O)CC[C@H](NC(=O)CCCCCCCCCCCCCCCCC(=O)O)C(=O)O)NC(=O)[C@H](C)NC(=O)[C@H](C)NC(=O)[C@H](CCC(N)=O)NC(=O)CNC(=O)[C@H](CCC(=O)O)NC(=O)[C@H](CC(C)C)NC(=O)[C@H](Cc1ccc(O)cc1)NC(=O)[C@H](CO)NC(=O)[C@H](CO)NC(=O)[C@@H](NC(=O)[C@H](CC(=O)O)NC(=O)[C@H](CO)NC(=O)[C@@H](NC(=O)[C@H](Cc1ccccc1)NC(=O)[C@@H](NC(=O)CNC(=O)[C@H](CCC(=O)O)NC(=O)C(C)(C)NC(=O)[C@@H](N)Cc1cnc[nH]1)[C@@H](C)O)[C@@H](C)O)C(C)C)C(=O)N[C@@H](C)C(=O)N[C@@H](Cc1c[nH]c2ccccc12)C(=O)N[C@@H](CC(C)C)C(=O)N[C@H](C(=O)N[C@@H](CCCNC(=N)N)C(=O)NCC(=O)N[C@@H](CCCNC(=N)N)C(=O)NCC(=O)O)C(C)C |  |  | human reference subject | body weight 85 kg, population PK model |  | inter-compartmental clearance | 0.304 L/h |
| Cc1cc(-c2nccc3c2ccn3CC(=O)Nc2ccc(-c3cnccn3)cn2)ccn1 |  |  | rat | 20 mg/kg/day, 1 month, repeat dosing |  | AUC(0-24 h), total | 49.4 µM·h |
| O=C1NC(=O)C(c2ccccc2)(c2ccccc2)N1 |  |  | human |  |  | free Cmax | 4360 nM |

| SMILES | target or system | assay | system | conditions | how to read | quantity | value |
| --- | --- | --- | --- | --- | --- | --- | --- |
| Cn1c(Cn2ccc(C(F)(F)F)c(Oc3cc(Cl)cc(C#N)c3)c2=O)n[nH]c1=O |  |  | human subjects | dose not given, up to 48 weeks |  | Headache incidence | 13.8% |
| CC(=O)Oc1cc(C(F)(F)F)ccc1C(=O)O |  |  | water |  |  | solubility | < 1000 µg/mL |
| COCCc1ccc(OCC(O)CNC(C)C)cc1 (stereo not shown) |  |  | human | 100 mg |  | AUC(0-inf), geometric mean | 486 ng·h/mL |
| CC(C)NC(=O)COc1cccc(-c2nc(Nc3ccc4[nH]ncc4c3)c3ccccc3n2)c1 |  |  | human | concentration not given, fed | baseline: fasted | exposure increase | ~2 fold |
| CC(C)(CO)c1cc2cc(NC(=O)C3(c4ccc5c(c4)OC(F)(F)O5)CC3)c(F)cc2n1C[C@@H](O)CO |  |  | human liver microsomes |  |  | CLint | 7.36 µL/min/mg protein |
| CC1(C)S[C@@H]2[C@H](NC(=O)[C@H](N)c3ccccc3)C(=O)N2[C@H]1C(=O)O | Escherichia coli |  | clinical isolate RKI-No_521/16 |  |  | MIC | > 16 µg/mL |
| O=C(CCCN1CC=C(n2c(=O)[nH]c3ccccc32)CC1)c1ccc(F)cc1 |  |  | water |  |  | solubility | < 1000 µg/mL |
| C[C@H]1COCCN1c1nc(-c2cnc(N)cc2C(F)F)nc(N2CCOCC2)n1 | A204 |  |  |  |  | GI50 | 129 nM |
| CC(C)n1c(Nc2cccnc2)nc2cnc(Nc3ccc(N4CCN(C)CC4)cc3)nc21 |  |  | human relapsed or refractory AML | 20 to 310 mg/day, multiple doses |  | accumulation ratio of Cmax | 0.6 |
| C[Si](C)(C)O[Si](C)(C)O[Si](C)(C)C |  | slow-stirring method | 1-octanol/water | 25 °C |  | log KOW | 6.6 |
| CCCN1C[C@H](CSC)C[C@@H]2c3cccc4[nH]cc(c34)C[C@H]21 |  |  | plasma |  |  | free Cmax | 0.32 nM |
| Cc1nc(Nc2ncc(C(=O)Nc3c(C)cccc3Cl)s2)cc(N2CCN(CCO)CC2)n1 |  |  | supercritical CO2 |  |  | crossover pressure | 160 to 180 bar |
| COc1cc2nc(N(C)CCCNC(=O)C3CCCO3)nc(N)c2cc1OC (stereo not shown) |  |  | human | concentration not given, clinical |  | diarrhoea incidence | 0% |
| C[C@@H](Oc1cc(-c2cnn(C3CCNCC3)c2)cnc1N)c1c(Cl)ccc(F)c1Cl |  |  | treatment-naive ALK-positive NSCLC patients | dose not given, monotherapy, trial |  | increased ALT/AST incidence | 36% |
| CN1CCC(COc2cnc(-c3cccc(Cn4nc(-c5cccc(C#N)c5)ccc4=O)c3)nc2)CC1 |  | mass balance study | human |  | baseline: dose | biliary excretion | 30% |
| Cc1nn(C)cc1S(=O)(=O)NC(=O)c1ccc(-n2ccc(OCC(C)(C)C(F)(F)F)n2)nc1N1C[C@@H](C)CC1(C)C |  |  | human |  |  | fraction unbound in enterocytes | 0.000775 |
| COc1cc(N2CCC(N3CCN(C)CC3)CC2)ccc1Nc1ncc(Cl)c(Nc2ccccc2P(C)(C)=O)n1 |  |  | healthy subjects | 180 mg, single dose alone, rifampin study |  | AUC(0-inf) | 15600 ng·h/mL |
| Nc1nc(NC2CC2)c2ncn([C@H]3C=C[C@@H](CO)C3)c2n1 |  |  | monkey | dose not given |  | oral bioavailability | > 76% |
| CC1=C(/C=C/C(C)=C/C=C/C(C)=C\C(=O)O)C(C)(C)CCC1 |  |  | FaSSIF | literature value |  | solubility | 51.1 µg/mL (≈ 170 µM) |
| O=C(NC[C@H]1CN(c2ccc(N3CCOCC3=O)cc2)C(=O)O1)c1ccc(Cl)s1 |  |  | plasma |  |  | plasma protein binding | ~90% |
| CNCc1cc(-c2ccccc2F)n(S(=O)(=O)c2cccnc2)c1 |  |  | human, plasma | 20 mg single dose, observed clinical data |  | Tmax | 1.5 h |
| C[C@]1(c2nc3c(C(N)=O)cccc3[nH]2)CCCN1 |  |  | patients with cancer | oral, 50 mg | baseline: dose | unchanged drug in urine | 70% |
| C=CC(=O)N1CCC([C@@H]2CCNc3c(C(N)=O)c(-c4ccc(Oc5ccccc5)cc4)nn32)CC1 |  |  | human patients, plasma | oral, 160 mg twice daily, day 1 |  | AUC(0-8) | 1270 ± 579 ng·h/mL |
| CNC(C)C1CCC(N)C(OC2C(N)CC(N)C(OC3OCC(C)(O)C(NC)C3O)C2O)O1 (stereo not shown) | Escherichia coli |  | clinical isolate RKI-No_581/16 |  |  | MIC | 1 µg/mL (≈ 2.09 µM) |
| CNCc1ccc(-c2cc(-c3nc(-c4ccc(S(=O)(=O)C(C)C)cc4)cnc3N)on2)cc1 |  |  | mouse, plasma |  |  | unbound fraction | 3% |
| COC(=O)N[C@@H](C)CNc1nccc(-c2cn(C(C)C)nc2-c2cc(Cl)cc(NS(C)(=O)=O)c2F)n1 |  |  | human, feces | dose not given |  | excreted fraction | 47% |
